Measurements collected from several papers.
Parts stem from different laboratories: compare values within a part only.

Series 1
Target: Histone acetyltransferase KAT6A, both winged helices, GST fusion (KAT6A, Homo sapiens, UniProt Q92794, residues 1-181)
Method: protein binding microarray
Molecule type: double-stranded DNA, one strand shown
Matrix: in vitro
Tested at: not given
Setting: 8-mer, flanks averaged, mean of 2 arrays, mostly near background
Relative to: not given
Reading: higher = stronger binding
Measurement: E-score
Residues (chain): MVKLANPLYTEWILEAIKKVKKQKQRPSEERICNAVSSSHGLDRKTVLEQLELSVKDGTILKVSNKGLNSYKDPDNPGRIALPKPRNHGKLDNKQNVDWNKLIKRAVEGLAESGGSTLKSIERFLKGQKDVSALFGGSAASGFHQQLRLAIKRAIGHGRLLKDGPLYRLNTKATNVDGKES
Strand = AACTTGGT; result = -0.0496
Strand = ATAGATAA; result = -0.103
Strand = AATTCTGG; result = -0.0826
Strand = ACATCATA; result = -0.0457
Strand = ATGTTATA; result = 0.0482

Series 2
Target: Interferon regulatory factor 3, full length, phosphomimetic (IRF3, Homo sapiens, UniProt Q14653, residues 1-427, S386D/S396D/S398D/S402D/T404D/S405D)
UniProt Q14653, sequence (whole entry, unmodified, looked up): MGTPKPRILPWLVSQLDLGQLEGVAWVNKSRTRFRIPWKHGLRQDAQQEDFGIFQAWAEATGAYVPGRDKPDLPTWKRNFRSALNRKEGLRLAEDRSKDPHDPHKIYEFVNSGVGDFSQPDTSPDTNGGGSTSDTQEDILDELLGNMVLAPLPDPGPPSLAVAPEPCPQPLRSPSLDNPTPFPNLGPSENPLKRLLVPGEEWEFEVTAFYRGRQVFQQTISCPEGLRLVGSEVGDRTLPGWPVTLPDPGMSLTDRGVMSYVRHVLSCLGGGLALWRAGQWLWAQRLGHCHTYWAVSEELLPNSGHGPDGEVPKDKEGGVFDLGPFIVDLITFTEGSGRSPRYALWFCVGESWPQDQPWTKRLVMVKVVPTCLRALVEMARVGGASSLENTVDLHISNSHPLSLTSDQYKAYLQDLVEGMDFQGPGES
Method: protein-binding microarray
Molecule type: double-stranded DNA, one strand shown
Matrix: in vitro
Tested at: 2540 nM top
Setting: 60-bp whole probe
With: salmon DNA 0.4 mg/ml
Relative to: random background probes
Reading: higher = stronger binding
Measurement: fitted relative affinity
Strand = GCCTAGCACGACGGACTGGGCCTCGGGACGTGCTAGGTCTTGATTCGCTTGACGCTGCTG; result = -1.05 z-score
Strand = GCCTAGCACTTAGATTTCAGGTCCGATTAGTGCTAGGTCTTGATTCGCTTGACGCTGCTG; result = 1.88 z-score
Strand = GCCTAGCACTCATGCATGTTTTTGACACTGTGCTAGGTCTTGATTCGCTTGACGCTGCTG; result = -0.000443 z-score

Series 3
Target: Sal-like protein 4, full length isoform B (SALL4, Homo sapiens, UniProt Q9UJQ4-2, residues 1-616)
Method: universal PBM
Molecule type: double-stranded DNA, one strand shown
Matrix: in vitro
Tested at: not given
Setting: 8-mer, flanks averaged, mean of replicates
Reading: higher = stronger binding
Measurement: E-score
Target sequence (chain): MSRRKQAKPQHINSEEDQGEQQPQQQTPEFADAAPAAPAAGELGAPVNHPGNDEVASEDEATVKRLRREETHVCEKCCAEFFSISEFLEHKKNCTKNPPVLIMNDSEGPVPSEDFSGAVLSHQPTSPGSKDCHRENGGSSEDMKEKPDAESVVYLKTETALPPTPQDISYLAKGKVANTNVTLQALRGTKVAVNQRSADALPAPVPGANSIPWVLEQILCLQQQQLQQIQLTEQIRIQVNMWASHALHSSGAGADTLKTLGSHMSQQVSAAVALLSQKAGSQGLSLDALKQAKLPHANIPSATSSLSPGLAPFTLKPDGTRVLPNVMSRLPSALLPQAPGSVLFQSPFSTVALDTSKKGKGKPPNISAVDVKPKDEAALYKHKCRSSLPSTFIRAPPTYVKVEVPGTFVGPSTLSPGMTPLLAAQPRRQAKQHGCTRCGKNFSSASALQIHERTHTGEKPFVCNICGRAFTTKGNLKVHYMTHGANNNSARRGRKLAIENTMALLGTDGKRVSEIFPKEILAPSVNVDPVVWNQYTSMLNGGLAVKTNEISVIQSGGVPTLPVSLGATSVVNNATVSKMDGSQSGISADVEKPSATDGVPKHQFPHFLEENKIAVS
Strand = CTCGGCGC; result = -0.257
Strand = ATAAGTCA; result = 0.226
Strand = ATAGTGCC; result = -0.0326

Single results of other studies
Molecule = PhoQ, residues 284 288 289 292 302 303 SSYNSA; target = PhoP, residues 12 14 15 18 19 LFHKL (Escherichia coli, UniProt P23836); assay = Sort-seq, item: YFP reporter; system = E. coli; setting = PhoQ-PhoP variant library, with: 10 µM Mg2+; scale = relative to: high Mg2+ state, higher = stronger signaling; measurement = fold induction; result = 4.49

Some of these lines once more (series 1):
Strand = ATGTTATA; result = 0.0482
